Published values collected from several papers.
± marks the error that the study gave.
Genome polyprotein NS3 helicase domain: Genome polyprotein, NS3 helicase domain (Hepatitis C virus genotype 1b, UniProt Q9WMX2)
UniProt Q9UKE5, sequence (whole entry, looked up): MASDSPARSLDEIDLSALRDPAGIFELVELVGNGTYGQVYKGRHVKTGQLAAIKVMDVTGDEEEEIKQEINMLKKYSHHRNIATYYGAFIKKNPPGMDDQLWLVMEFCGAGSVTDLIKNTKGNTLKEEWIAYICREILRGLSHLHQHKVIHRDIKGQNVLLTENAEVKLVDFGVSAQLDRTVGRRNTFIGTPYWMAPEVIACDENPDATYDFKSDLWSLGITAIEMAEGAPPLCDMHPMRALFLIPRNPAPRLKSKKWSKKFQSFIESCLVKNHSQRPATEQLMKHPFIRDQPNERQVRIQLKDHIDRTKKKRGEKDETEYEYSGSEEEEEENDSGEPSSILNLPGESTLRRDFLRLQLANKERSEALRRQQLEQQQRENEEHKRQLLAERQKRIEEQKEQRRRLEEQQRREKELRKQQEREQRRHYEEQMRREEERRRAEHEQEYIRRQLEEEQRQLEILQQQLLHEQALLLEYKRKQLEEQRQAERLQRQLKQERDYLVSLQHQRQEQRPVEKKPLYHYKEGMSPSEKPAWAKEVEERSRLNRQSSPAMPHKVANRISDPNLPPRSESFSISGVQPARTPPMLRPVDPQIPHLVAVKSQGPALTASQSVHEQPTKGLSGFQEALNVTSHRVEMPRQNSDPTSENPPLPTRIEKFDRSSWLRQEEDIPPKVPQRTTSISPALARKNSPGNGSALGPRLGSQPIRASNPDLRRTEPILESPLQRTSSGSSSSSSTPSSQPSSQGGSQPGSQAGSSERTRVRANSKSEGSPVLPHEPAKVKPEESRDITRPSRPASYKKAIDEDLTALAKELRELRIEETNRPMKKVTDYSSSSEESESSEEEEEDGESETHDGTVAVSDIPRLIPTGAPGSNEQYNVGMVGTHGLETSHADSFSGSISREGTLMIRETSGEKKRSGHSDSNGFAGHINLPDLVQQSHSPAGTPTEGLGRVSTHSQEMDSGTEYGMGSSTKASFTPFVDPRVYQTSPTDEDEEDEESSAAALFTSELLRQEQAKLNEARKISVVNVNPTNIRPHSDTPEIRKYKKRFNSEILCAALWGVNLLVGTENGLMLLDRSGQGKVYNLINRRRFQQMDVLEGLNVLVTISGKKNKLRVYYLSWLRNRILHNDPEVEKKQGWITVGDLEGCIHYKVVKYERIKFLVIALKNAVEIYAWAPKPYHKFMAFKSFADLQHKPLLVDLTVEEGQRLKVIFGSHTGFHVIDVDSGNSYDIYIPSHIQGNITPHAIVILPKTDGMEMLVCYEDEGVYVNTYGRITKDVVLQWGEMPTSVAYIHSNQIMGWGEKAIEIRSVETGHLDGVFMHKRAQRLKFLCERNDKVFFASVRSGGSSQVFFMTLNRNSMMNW
UniProt P50406, sequence (whole entry, looked up): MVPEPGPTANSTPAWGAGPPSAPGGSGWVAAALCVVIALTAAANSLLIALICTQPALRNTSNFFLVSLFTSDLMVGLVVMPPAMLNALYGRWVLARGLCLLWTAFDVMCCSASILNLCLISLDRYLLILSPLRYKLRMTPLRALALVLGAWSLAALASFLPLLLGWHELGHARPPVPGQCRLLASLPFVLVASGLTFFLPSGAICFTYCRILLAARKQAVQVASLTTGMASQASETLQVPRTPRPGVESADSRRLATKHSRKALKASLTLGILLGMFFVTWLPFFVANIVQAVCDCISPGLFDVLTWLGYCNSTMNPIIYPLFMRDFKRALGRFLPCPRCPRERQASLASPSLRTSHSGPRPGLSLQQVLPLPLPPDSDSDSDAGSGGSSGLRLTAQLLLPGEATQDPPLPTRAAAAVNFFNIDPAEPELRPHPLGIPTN
UniProt Q8NFJ6, sequence (whole entry, looked up): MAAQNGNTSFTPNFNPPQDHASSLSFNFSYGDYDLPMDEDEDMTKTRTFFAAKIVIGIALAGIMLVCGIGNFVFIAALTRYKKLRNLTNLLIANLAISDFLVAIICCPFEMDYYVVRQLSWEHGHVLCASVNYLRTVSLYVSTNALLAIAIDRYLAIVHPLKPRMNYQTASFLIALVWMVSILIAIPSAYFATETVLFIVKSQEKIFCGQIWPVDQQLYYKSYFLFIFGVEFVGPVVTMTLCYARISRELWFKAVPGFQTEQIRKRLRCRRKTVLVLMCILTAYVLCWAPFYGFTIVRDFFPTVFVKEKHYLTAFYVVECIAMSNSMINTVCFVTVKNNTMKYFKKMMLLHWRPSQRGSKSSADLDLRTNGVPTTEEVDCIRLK
UniProt Q92993, sequence (whole entry, looked up): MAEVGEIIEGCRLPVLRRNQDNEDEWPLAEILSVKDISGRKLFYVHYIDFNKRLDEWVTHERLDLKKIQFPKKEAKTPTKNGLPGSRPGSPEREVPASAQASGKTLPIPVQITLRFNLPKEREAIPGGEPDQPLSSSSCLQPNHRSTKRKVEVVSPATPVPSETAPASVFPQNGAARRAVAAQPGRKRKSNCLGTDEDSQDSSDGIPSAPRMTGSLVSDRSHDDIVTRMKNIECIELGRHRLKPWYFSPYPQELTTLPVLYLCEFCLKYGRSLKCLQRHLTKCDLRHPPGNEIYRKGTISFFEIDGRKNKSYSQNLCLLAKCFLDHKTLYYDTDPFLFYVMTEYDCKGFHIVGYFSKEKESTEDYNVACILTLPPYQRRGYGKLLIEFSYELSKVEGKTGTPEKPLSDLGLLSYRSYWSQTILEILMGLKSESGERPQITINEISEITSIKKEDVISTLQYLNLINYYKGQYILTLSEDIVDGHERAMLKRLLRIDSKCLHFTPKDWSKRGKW
UniProt Q9NZ01, sequence (whole entry, looked up): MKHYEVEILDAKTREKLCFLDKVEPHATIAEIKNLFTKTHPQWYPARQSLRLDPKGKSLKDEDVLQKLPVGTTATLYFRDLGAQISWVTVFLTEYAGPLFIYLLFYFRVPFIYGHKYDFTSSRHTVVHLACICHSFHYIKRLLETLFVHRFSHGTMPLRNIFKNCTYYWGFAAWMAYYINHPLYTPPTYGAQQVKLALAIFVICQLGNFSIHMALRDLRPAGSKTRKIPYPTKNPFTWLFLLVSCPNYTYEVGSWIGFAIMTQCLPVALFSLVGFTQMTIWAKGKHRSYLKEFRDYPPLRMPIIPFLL
UniProt P18089, sequence (whole entry, looked up): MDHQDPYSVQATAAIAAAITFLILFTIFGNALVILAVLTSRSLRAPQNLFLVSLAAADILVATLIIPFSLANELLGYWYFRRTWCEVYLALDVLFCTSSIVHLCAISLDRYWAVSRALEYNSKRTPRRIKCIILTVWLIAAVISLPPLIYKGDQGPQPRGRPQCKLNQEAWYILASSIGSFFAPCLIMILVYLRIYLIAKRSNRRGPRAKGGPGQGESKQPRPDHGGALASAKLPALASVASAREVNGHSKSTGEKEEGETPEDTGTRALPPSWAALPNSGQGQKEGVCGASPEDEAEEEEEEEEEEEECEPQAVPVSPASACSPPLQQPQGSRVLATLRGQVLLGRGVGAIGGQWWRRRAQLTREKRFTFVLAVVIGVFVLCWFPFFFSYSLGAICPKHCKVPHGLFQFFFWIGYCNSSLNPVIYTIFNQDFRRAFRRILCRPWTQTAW
UniProt Q9NZH0, sequence (whole entry, looked up): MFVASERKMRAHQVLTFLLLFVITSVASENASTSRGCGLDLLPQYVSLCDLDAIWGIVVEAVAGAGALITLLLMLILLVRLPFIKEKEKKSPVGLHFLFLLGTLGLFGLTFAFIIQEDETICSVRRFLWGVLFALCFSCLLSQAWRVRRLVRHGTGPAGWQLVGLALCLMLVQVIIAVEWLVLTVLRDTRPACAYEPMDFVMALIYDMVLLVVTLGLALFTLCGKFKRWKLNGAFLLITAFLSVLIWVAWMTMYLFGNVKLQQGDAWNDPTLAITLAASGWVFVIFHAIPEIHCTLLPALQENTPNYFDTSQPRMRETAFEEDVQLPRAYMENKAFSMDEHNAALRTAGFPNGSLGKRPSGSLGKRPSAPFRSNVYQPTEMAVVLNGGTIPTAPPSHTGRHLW
UniProt P25101, sequence (whole entry, looked up): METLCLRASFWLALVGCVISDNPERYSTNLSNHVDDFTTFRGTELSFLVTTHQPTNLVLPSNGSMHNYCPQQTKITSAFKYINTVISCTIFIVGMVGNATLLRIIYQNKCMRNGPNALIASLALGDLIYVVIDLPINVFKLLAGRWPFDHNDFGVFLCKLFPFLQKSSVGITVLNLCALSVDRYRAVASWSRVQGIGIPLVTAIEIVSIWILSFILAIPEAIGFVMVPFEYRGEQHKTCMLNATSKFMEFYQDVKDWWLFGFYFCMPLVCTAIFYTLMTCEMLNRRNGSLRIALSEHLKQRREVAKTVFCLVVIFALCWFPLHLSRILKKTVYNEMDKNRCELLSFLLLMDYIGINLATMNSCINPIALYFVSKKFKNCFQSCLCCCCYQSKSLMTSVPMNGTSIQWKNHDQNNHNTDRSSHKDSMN
UniProt P53778, sequence (whole entry, looked up): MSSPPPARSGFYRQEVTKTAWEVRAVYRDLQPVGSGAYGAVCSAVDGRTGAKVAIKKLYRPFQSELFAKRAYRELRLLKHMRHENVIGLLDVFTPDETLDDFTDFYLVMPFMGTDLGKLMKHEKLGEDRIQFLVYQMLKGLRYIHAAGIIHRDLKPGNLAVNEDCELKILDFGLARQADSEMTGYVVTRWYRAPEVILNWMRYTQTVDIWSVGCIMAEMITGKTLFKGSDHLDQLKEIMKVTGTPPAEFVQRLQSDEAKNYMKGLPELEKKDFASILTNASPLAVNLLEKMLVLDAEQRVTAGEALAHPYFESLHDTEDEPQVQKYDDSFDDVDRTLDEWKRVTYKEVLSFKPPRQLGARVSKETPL
UniProt P06493, sequence (whole entry, looked up): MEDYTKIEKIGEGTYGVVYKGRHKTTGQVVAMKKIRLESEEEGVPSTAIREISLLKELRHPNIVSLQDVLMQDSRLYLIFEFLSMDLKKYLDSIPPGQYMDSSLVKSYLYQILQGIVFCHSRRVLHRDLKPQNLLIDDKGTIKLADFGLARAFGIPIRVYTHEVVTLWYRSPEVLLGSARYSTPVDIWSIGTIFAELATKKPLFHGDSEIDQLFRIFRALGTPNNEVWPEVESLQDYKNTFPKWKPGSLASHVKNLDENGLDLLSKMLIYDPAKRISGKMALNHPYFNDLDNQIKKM

SMILES | target or system | test | system | conditions | scale | endpoint | result
CC(C)N1CCC[C@H]1CNC(=O)c1cn(C2CCCC2)c(=O)c2c1c1ccccc1n2C | phorbol ester receptor (mouse) | radioligand binding | – | 10 µM | – | inhibition | 2%
COc1ccc(N2C(=O)N(c3c(C)cccc3Cl)Cc3cnc(Nc4ccc(C5CCN(C)CC5)cc4OC)nc32)nc1 | MAP3K5 (Homo sapiens, UniProt Q99683) | kinase activity, inhibitor | – | 0.5 µM, ASK1 | – | inhibition | 1.73%
[2H]c1c([2H])c([C@]2([2H])CCCN2C(=O)C(C)(C)Oc2ccc3cn[nH]c3c2)c([2H])c([2H])c1C([2H])([2H])[2H] | TNIK (Homo sapiens, UniProt Q9UKE5) | KINOMEscan | – | 1 µM | reference: DMSO control | remaining binding | 86%
O=C(Cc1c[nH]c2cc(Cl)ccc12)N1CCC(n2ccnc2)CC1 | Trypanothione synthetase (Leishmania infantum, UniProt A4I2Z3) | enzyme activity | – | 25 µM | – | inhibition | 10.4 ± 8.9%
O=c1ccc2ccccc2o1 | EDNRA (Homo sapiens, UniProt P25101) | agonist radioligand binding | – | 10 µM, SafetyScreen44 | – | inhibition | 6.47%
CC(C)C[C@H]1C(=O)N2CCC[C@H]2[C@]2(O)O[C@](NC(=O)[C@@H]3C=C4c5cccc6[nH]c(Br)c(c56)C[C@H]4N(C)C3)(C(C)C)C(=O)N12.CS(=O)(=O)O | Genome polyprotein NS3 helicase domain | DNA binding, inhibitor | hepatitis C virus | 100 µM, with: Cy5-dT15 DNA | – | inhibition | 2%
Oc1ccc2c3c1O[C@H]1[C@@H](O)CC[C@@]4(O)[C@@H](C2)N(CC2CCC2)CC[C@]314 | G-protein coupled receptor family C group 5 member B (GPRC5B, Homo sapiens, UniProt Q9NZH0) | β-arrestin recruitment, TANGO luminescence, refers to: GPRC5B | – | concentration not given | reference: basal luminescence | log2 fold change | 0.336
CN(C(=O)n1cnc(-c2ccc[n+]([O-])c2)c1)C1CCCCC1 | OPRD1 (Homo sapiens, UniProt P41143) | binding | – | 10 µM, with: [3H]naltrindole | – | inhibition | 9%
CC[C@H](C)[C@@H]1NC(=O)[C@@H]2CCCN2C(=O)[C@H](CC(C)C)NC(=O)[C@H](CC(C)C)NC(=O)CNC(=O)[C@@H](NC(=O)[C@@H](NC(=O)[C@H](CC(=O)O)NC(=O)CNC(=O)[C@@H](NC(=O)[C@H](C)NC(=O)CNC(=O)[C@H](CCCCN)NC(=O)[C@H](CC(C)C)NC(=O)[C@H](CC(C)C)NC(=O)[C@H](CCCCN)NC(=O)CNC(=O)[C@@H](NC(=O)[C@@H](N)CC(C)C)C(C)C)C(C)C)C(C)C)CSSC[C@@H](C(=O)O)NC1=O | – | RNA-seq, refers to: Il10 | mouse, traumatic brain injury model, frontal cortex and hippocampus | dose not given | reference: TBI alone | log2 fold change | -6.86
C[N+]1(C)CCC(OC(=O)C(O)(c2ccccc2)C2CCCC2)C1 (stereo not drawn) | Gag polyprotein, nucleocapsid protein p7 (gag, Human immunodeficiency virus type 1 group M subtype B, UniProt P04591) | NCp7-RNA binding, AlphaScreen | HIV-1 | 45 µM | – | inhibition | > 50%
O=C(c1ccc(Cl)cc1)N1CCN2C(=O)N(OC(=O)N3CCOc4ccccc43)C(=O)C2C1 (stereo not drawn) | Palmitoyl-protein thioesterase ABHD10, mitochondrial (Homo sapiens, UniProt Q9NUJ1) | MS-based ABPP | SW-620 conditioned medium | 10 µM, 1 h, 37 °C | reference: compound over DMSO, lower = more inhibition | median protein ratio | 1.17
CO[C@H]1C[C@@H]2CC[C@@H](C)[C@@](O)(O2)C(=O)C(=O)N2CCCC[C@H]2C(=O)O[C@H]([C@H](C)C[C@@H]2CC[C@@H](OC(=O)NCCOCCOCCOCCOCCOCCOCCOCCOCCC(=O)N3CCc4cc(Cn5nc(-c6ccc7oc(N)nc7c6)c6c(N)ncnc65)ccc4C3)[C@H](OC)C2)C[C@@H](O)[C@H](C)/C=C(\C)[C@@H](O)[C@@H](OC)C(=O)[C@H](C)C[C@H](C)/C=C/C=C/C=C/1C | – | – | patients with advanced solid tumours | intravenous, 16 mg weekly, grade 3 or higher | – | vomiting incidence | 0%
C[N+]1(C)CCOC(O)(c2ccc(-c3ccc(C4(O)C[N+](C)(C)CCO4)cc3)cc2)C1 (stereo not drawn) | Genome polyprotein NS3 helicase domain | DNA binding, inhibitor | hepatitis C virus | 100 µM, with: Cy5-dT15 DNA | – | inhibition | 3%
COc1cc2c(Oc3ccc4[nH]c(C)cc4c3F)ccnc2cc1OCC1(N)CC1 | – | – | paediatric recurrent refractory sarcoma | 8 mg | – | grade 3 intestinal obstruction | 0%
FC(F)(F)c1cccc(Nc2nc(NCCOc3ccccc3)nc3[nH]cnc23)c1 | MAPK12 (Homo sapiens, UniProt P53778) | Z'-LYTE or Adapta | – | 5 µM | – | inhibition | 9%
C[C@@H](O)[C@@H](CO)NC(=O)[C@@H](CCCNC(=N)N)NC(=O)[C@@H]1CCCN1C(=O)[C@@H]1CSSC[C@H](NC(=O)[C@H](Cc2ccccc2)NC(=O)CN2CCN(CC(=O)O)CCN(CC(=O)O)CCN(CC(=O)O)CC2)C(=O)N[C@@H](Cc2ccc(O)cc2)C(=O)N[C@@H](Cc2ccccc2)C(=O)N[C@@H](CCC(N)=O)C(=O)N[C@@H](CC(N)=O)C(=O)N1 [gallium-68 labelled] | – | – | healthy Wistar rat, bone | intravenous, 8 MBq, 120 min, individual animals | – | tissue uptake | 0.02 %ID/g
C[C@H]1CN(c2n[nH]c3nc(N[C@H]4CC[C@H](NS(=O)(=O)CCC(F)(F)F)CC4)ncc23)CCO1 | Very-long-chain enoyl-CoA reductase (Homo sapiens, UniProt Q9NZ01) | Kinobeads competition, refers to: GPSN2 | – | 0.8 µM, unit not given | reference: vehicle | remaining binding | 1.04
CN1CCN(c2nc(N)c3ccccc3n2)CC1 | HTR6 (Homo sapiens, UniProt P50406) | radioligand binding, radioligand competition binding | – | 0.1 µM, mean of two | reference: control specific binding | inhibition | 0.6%

SMILES | target or system | test | system | conditions | scale | endpoint | result
CC(=O)NC[C@H]1[C@H](O)[C@H](O)[C@@H]2[C@H](O)C[C@@H](CO)N21 | Spodoptera litura β-N-acetylglucosaminidase | – | crude enzyme | 0.00627 µM, run 1, with: p-nitrophenyl GlcNAc | – | inhibition | 36.7%
C[C@]1(CO)Cc2ncn(-c3ccc(C#N)c(Cl)c3)c2C(=O)O1 | – | – | human, Chinese | 80 mg single dose | – | subjects with drug-related orthostatic hypotension | 0%
CCOc1ccccc1C(=O)Nc1ccc(Cl)c(C(F)(F)F)c1 | KAT5 (Homo sapiens, UniProt Q92993) | SPR | – | 17 µM | higher = more binding | SPR binding response | 0.382 RU
Cc1ncc(CNC(=O)N(CCCl)N=O)c(N)n1 | Genome polyprotein NS3 helicase domain | DNA binding, inhibitor | hepatitis C virus | 100 µM, with: Cy5-dT15 DNA | – | inhibition | 2%
C[C@H](C(=O)N[C@H]1COc2ccccc2[C@@H]1S(C)(=O)=O)c1ccc(F)cc1 | Cyclin-dependent kinase 1, with cyclin B1 (CDK1, Homo sapiens, UniProt P06493) | enzyme activity | – | 10 µM, Eurofins selectivity panel | – | inhibition | -17%
CC[C@H](C)[C@H](NC(=O)[C@@H](NC(=O)[C@H](N)Cc1ccccc1)C(C)C)C(=O)N[C@@H](C)C(N)=O | APP (Homo sapiens, UniProt P05067) | aggregation, inhibitor, thioflavin T fluorescence | – | 2 µM | – | inhibition | 91.8%
CN1CCN(c2cc(-c3ccncc3)c(-c3ccc4ccccc4c3)nn2)CC1 | PROKR2 (Homo sapiens, UniProt Q8NFJ6) | antagonist, FLIPR | – | 10 µM | – | inhibition | 40.1%
COc1c(CCC[P+](c2ccccc2)(c2ccccc2)c2ccccc2)cc2c(c1OC)OCO2.[I-] | Hs-578T | SRB | – | – | – | TGI | -4.87 log M
N#CCCN.N#CCCN.O=C(O)/C=C/C(=O)O | Genome polyprotein NS3 helicase domain | DNA binding, inhibitor | hepatitis C virus | 100 µM, with: Cy5-dT15 DNA | – | inhibition | 4%
O=C(Nc1cnccc1Cl)N1CCN(Cc2ccc3c(c2)OC(F)(F)O3)CC1 | GABA transporter, rat | binding | – | 50 µM, with: [3H]GABA | – | inhibition | 4%
CC[C@H](C)[C@H](NC(=O)[C@H](Cc1ccccc1)NC(=O)[C@H](CCC(=O)O)NC(=O)[C@H](CCCNC(=N)N)NC(=O)[C@H](C)NC(=O)[C@H](C)NC(=O)[C@H](CCC(N)=O)NC(=O)[C@H](CCC(=O)O)NC(=O)[C@H](CCC(=O)O)NC(=O)[C@H](CC(C)C)NC(=O)[C@H](Cc1ccc(O)cc1)NC(=O)[C@H](CO)NC(=O)[C@H](CO)NC(=O)[C@@H](NC(=O)[C@H](CC(=O)O)NC(=O)[C@H](CO)NC(=O)[C@@H](NC(=O)[C@H](Cc1ccccc1)NC(=O)[C@@H](NC(=O)CNC(=O)[C@H](CCC(=O)O)NC(=O)[C@H](C)NC(=O)CCc1c[nH]cn1)[C@@H](C)O)[C@@H](C)O)C(C)C)C(=O)N[C@@H](C)C(=O)N[C@@H](Cc1c[nH]c2ccccc12)C(=O)N[C@@H](CC(C)C)C(=O)N[C@H](C(=O)N[C@@H](CCCNC(=N)N)C(=O)NCC(=O)N[C@@H](CCCNC(=N)N)C(=O)N[C@@H](CCCCNC(=O)COCCOCCNC(=O)COCCOCCNC(=O)CC[C@H](NC(=O)CCCCCCCCCCCCCCCCC(=O)O)C(=O)O)C(=O)NCC(=O)NCC(=O)N[C@@H](CO)C(=O)N[C@@H](CCCCNc1c(NCCCCCN(O)C(=O)CCC(=O)NCCCCCN(O)C(=O)CCC(=O)NCCCCCN(O)C(C)=O)c(=O)c1=O)C(=O)O)C(C)C [zirconium-89 labelled] | – | ex vivo gamma counting | rat, stomach | subcutaneous, 3 nmol/kg, 72 h, with: [89Zr]-labelled peptide | – | tissue uptake | 0.15 %ID/g
COC(=O)c1ccc(C(=O)OC)c(NC(=O)CN2CCN(C(=O)COc3cccc4ccccc34)CC2)c1 | uncharacterized protein (Erigeron canadensis, UniProt A0A8M0FGR5) | enzyme activity | – | 100 mg/L | – | inhibition | > 30%
CC(=O)OCC1=C(C(=O)[O-])N2C(=O)[C@@H](NC(=O)CCC[C@@H](N)C(=O)[O-])[C@H]2SC1.[Zn+2] | Genome polyprotein NS3 helicase domain | DNA binding, inhibitor | hepatitis C virus | 100 µM, with: Cy5-dT15 DNA | – | inhibition | 0%
O=C(Nc1cccnn1)N1CCC(=Cc2cccc(Oc3ccc(C(F)(F)F)cn3)c2)CC1 | ADRA2B (Homo sapiens, UniProt P18089) | binding | – | 50 µM, with: [3H]rauwolscine | – | inhibition | 47%
C#C[C@]1(O)CC[C@H]2[C@@H]3CCC4=Cc5nc6nc7ccccc7n6cc5C[C@]4(C)[C@H]3CC[C@@]21C | Genome polyprotein NS3 helicase domain | DNA binding, inhibitor | hepatitis C virus | 100 µM, with: Cy5-dT15 DNA | – | inhibition | 0%
COc1cc(Nc2ncc(F)c(Nc3ccc4c(n3)NC(=O)C(C)(C)O4)n2)cc(OC)c1OC | SRMS (Homo sapiens, UniProt Q9H3Y6) | KINOMEscan | – | 10 µM | – | inhibition | 86%
CN1CCCC1c1cccnc1.O=C(O)C(O)C(O)C(=O)O (single isomer, unassigned; (-)) | Genome polyprotein NS3 helicase domain | DNA binding, inhibitor | hepatitis C virus | 100 µM, with: Cy5-dT15 DNA | – | inhibition | 0%
C#Cc1n[nH]c2c(-c3cn([C@@H](C)c4ccccc4)c(=O)[nH]c3=O)cc(F)cc12 | LYN (Homo sapiens, UniProt P07948) | kinase activity, inhibitor | – | 100 nM | – | inhibition | 0.7%

A few entries again:
SMILES | target or system | test | system | conditions | scale | endpoint | result
CC(C)N1CCC[C@H]1CNC(=O)c1cn(C2CCCC2)c(=O)c2c1c1ccccc1n2C | phorbol ester receptor (mouse) | radioligand binding | – | 10 µM | – | inhibition | 2%
CC[C@H](C)[C@@H]1NC(=O)[C@@H]2CCCN2C(=O)[C@H](CC(C)C)NC(=O)[C@H](CC(C)C)NC(=O)CNC(=O)[C@@H](NC(=O)[C@@H](NC(=O)[C@H](CC(=O)O)NC(=O)CNC(=O)[C@@H](NC(=O)[C@H](C)NC(=O)CNC(=O)[C@H](CCCCN)NC(=O)[C@H](CC(C)C)NC(=O)[C@H](CC(C)C)NC(=O)[C@H](CCCCN)NC(=O)CNC(=O)[C@@H](NC(=O)[C@@H](N)CC(C)C)C(C)C)C(C)C)C(C)C)CSSC[C@@H](C(=O)O)NC1=O | – | RNA-seq, refers to: Il10 | mouse, traumatic brain injury model, frontal cortex and hippocampus | dose not given | reference: TBI alone | log2 fold change | -6.86
CC(=O)OCC1=C(C(=O)[O-])N2C(=O)[C@@H](NC(=O)CCC[C@@H](N)C(=O)[O-])[C@H]2SC1.[Zn+2] | Genome polyprotein NS3 helicase domain | DNA binding, inhibitor | hepatitis C virus | 100 µM, with: Cy5-dT15 DNA | – | inhibition | 0%
